Measured values gathered from unrelated publications.
Each numbered part is a random draw from the data of one study; scales do not carry over between parts. Positions count from the first letter of the parent shown.
Chain of UniProt P10721 (whole entry, unmodified, looked up): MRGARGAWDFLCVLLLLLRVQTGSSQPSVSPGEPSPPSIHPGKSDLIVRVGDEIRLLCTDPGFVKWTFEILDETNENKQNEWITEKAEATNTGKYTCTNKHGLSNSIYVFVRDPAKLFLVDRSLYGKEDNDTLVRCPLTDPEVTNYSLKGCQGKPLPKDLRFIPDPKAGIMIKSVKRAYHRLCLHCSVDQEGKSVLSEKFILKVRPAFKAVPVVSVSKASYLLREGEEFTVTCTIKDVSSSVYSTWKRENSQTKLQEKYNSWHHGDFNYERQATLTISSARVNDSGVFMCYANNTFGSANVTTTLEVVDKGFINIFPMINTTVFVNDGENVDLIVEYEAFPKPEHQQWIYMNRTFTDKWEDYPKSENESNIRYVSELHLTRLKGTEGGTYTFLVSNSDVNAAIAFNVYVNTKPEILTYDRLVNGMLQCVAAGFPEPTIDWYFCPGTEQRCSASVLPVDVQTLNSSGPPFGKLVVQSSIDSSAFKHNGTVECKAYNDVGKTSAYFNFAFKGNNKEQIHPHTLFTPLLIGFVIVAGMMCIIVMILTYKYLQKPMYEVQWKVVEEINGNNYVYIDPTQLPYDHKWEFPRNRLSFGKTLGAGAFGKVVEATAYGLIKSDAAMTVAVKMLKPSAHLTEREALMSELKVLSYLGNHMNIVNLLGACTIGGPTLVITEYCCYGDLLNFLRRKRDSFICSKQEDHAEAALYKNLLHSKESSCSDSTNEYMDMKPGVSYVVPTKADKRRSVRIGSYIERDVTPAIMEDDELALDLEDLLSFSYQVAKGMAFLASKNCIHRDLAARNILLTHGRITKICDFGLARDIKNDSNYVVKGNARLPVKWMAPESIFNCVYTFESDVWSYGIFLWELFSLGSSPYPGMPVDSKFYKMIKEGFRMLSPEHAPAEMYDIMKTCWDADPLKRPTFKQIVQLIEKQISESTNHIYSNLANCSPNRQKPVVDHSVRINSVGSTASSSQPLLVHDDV
Chain of UniProt Q13164 (whole entry, looked up): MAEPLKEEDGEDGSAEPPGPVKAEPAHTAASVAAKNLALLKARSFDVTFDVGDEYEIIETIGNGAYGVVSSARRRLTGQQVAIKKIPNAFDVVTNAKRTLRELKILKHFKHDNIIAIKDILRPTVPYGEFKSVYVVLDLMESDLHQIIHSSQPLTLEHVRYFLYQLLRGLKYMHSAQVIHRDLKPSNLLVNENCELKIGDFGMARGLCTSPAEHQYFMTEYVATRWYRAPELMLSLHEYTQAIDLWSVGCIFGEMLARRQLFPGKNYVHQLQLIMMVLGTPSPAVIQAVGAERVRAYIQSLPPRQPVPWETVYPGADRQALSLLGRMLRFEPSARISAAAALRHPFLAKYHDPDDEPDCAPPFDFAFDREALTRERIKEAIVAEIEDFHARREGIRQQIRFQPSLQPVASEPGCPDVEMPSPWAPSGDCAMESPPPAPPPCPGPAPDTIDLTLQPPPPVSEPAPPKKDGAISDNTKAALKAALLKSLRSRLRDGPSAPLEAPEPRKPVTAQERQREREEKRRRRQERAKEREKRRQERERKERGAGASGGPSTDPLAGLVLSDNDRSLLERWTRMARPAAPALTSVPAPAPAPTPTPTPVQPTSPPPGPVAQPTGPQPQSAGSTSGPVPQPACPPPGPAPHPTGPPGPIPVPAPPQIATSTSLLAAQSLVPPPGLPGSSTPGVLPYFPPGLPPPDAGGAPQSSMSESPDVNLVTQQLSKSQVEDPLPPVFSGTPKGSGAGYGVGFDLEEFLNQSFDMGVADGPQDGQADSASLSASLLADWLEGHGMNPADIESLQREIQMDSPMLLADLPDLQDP
Chain of UniProt P08631 (whole entry, looked up): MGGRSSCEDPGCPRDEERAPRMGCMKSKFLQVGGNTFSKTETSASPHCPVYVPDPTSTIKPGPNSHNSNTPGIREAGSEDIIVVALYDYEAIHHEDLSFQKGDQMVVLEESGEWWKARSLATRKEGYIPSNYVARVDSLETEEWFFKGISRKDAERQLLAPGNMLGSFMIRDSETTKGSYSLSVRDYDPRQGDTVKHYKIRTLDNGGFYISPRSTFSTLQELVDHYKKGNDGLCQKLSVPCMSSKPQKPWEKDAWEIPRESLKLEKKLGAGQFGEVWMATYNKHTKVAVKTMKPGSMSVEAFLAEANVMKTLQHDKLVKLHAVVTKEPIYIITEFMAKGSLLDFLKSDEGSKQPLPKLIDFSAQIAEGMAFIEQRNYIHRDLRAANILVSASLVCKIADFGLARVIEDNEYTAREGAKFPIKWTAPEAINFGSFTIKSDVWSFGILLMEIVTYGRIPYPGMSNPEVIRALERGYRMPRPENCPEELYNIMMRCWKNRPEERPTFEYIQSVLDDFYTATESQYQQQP
Chain of UniProt Q9C098 (whole entry, looked up): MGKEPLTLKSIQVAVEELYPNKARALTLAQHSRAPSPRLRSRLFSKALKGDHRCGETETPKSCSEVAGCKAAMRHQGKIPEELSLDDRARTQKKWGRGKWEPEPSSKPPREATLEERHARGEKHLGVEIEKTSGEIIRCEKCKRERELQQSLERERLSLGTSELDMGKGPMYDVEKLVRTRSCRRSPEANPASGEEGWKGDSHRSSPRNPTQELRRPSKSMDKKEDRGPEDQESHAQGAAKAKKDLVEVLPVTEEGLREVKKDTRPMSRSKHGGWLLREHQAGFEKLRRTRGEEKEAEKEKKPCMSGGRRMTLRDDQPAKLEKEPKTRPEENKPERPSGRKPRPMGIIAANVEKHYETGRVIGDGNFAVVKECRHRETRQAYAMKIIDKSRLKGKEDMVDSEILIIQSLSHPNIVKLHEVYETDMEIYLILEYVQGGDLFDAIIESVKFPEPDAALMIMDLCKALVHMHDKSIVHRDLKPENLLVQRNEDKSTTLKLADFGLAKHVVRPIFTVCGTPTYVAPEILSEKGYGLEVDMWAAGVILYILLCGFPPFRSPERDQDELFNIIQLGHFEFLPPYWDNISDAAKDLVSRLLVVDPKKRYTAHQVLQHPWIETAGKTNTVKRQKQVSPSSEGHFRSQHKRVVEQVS
Chain of UniProt P07332 (whole entry, looked up): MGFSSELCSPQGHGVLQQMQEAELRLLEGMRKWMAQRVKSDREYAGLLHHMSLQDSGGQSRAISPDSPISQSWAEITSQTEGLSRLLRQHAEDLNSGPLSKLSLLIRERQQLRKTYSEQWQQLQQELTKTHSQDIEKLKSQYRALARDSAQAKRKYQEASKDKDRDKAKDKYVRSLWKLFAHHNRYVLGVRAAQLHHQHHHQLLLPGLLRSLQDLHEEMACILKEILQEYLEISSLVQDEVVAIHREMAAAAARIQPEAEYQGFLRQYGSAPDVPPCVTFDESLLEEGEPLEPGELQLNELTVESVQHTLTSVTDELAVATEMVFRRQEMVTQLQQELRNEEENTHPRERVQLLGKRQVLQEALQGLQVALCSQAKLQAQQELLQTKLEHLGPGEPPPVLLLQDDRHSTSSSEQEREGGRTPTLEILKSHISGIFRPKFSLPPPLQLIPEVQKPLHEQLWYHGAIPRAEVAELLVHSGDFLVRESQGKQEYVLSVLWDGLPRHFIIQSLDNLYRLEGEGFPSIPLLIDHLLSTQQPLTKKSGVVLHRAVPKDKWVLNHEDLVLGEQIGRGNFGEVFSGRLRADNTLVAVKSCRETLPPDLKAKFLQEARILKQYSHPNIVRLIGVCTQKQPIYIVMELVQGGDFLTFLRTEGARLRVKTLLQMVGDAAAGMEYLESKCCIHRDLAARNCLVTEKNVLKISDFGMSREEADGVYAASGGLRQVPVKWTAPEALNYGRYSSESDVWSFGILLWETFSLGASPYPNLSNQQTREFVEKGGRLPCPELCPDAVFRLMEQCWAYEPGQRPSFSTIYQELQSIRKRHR
Chain of UniProt Q8N568 (whole entry, looked up): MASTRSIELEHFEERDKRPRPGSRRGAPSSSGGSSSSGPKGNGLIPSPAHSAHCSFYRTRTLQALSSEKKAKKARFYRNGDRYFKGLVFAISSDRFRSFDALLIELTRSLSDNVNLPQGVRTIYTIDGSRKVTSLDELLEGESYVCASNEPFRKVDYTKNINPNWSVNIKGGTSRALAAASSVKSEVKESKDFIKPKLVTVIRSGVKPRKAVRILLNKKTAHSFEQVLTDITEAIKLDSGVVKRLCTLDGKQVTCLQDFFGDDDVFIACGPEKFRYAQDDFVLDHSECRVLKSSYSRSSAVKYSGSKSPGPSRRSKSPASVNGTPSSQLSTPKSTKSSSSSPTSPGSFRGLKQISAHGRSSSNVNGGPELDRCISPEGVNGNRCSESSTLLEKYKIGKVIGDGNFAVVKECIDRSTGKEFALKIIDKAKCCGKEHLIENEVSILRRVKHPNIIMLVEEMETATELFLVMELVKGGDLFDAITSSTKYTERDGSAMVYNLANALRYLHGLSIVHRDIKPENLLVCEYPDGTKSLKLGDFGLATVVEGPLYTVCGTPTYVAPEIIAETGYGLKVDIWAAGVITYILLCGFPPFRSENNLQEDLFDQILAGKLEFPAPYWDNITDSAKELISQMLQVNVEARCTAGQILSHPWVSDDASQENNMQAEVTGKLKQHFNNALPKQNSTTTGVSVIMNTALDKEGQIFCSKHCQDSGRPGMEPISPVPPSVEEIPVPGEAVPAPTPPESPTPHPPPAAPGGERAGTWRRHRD
Chain of UniProt Q13163 (whole entry, looked up): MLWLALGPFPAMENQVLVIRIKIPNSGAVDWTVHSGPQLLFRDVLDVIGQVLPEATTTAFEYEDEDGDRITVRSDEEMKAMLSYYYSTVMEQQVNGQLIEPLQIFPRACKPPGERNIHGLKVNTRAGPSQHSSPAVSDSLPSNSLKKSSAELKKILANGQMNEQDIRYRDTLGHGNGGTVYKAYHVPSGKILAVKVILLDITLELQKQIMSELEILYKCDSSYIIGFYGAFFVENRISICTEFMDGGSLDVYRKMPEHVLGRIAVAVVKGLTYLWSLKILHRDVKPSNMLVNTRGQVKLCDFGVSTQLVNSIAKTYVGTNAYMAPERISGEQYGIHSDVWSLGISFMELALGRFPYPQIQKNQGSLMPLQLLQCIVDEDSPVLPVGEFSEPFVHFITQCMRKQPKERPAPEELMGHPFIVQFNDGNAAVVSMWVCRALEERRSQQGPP

Study 1 — cell line: mouse MPNST tumor cells; technique: high-content immunofluorescence imaging; refers to: nuclear SOX9; concentration: 10 µM; time: 12 h; setting: mean of 2 replicates; baseline: DMSO control; reading: higher = more nuclear SOX9; measurement: nuclear SOX9 intensity
SMILES = CC#CCOC(=O)c1c(C)nc2sc3c(c2c1N)CCC(O)C3 (stereo not shown); value = 104 % of DMSO
SMILES = CC(C)(CO)C(O)C(=O)NCCCO (stereo not shown); value = 101 % of DMSO
SMILES = Cc1nc2n(c(=O)c1CCN1CCC(c3noc4cc(F)ccc34)CC1)CCCC2O (stereo not shown); value = 112 % of DMSO

Study 2 — Structure (SMILES): C=CCc1ccc(O)c(-c2ccc(O)c(CC=C)c2)c1; read-out: chloride current; technique: whole-cell voltage clamp; measurement: IC50
target = Anoctamin-1 (ANO1, Homo sapiens, UniProt Q5XXA6, del476-501/F628I); mode = inhibitor; setting = F602I mutant at 40 mV; value = 8.95 µM
target = Anoctamin-1 (ANO1, Homo sapiens, UniProt Q5XXA6, D383A/del476-501); setting = membrane voltage 20 mV; value = 4.93 µM
target = Anoctamin-1 (ANO1, Homo sapiens, UniProt Q5XXA6, del476-501/R631I); mode = inhibitor; setting = R605I mutant at 20 mV; value = 22.5 µM

Study 3 — species: mouse; sample: microsomes or S9; concentration: 2 µM; time: 0.5 h; measurement: remaining compound
Structure (SMILES) = Cc1nnc(-c2csc(S(=O)(=O)NC(C)C)c2)o1; value = 60.5%
Structure (SMILES) = Cn1cc(-n2cc(Cc3c(Cl)cccc3Cl)c(=O)[nH]c2=O)cn1; value = 25.6%
Structure (SMILES) = CC(C)OC(=O)c1c(NC(=O)CN2CCN(C)CC2)sc2c1CCCC2; value = 8.68%
Structure (SMILES) = C[C@H](Nc1ccnc2c1NC(=O)CN2)c1cc2cccc(Cl)c2c(=O)n1-c1ccccc1; value = 23.6%

Study 4 — target: panel of 300 human kinases; concentration: 0.5 µM; reading: higher = more selective; measurement: Gini score
Compound = CN1CCN(c2ccc3nc(-c4c(N)c5c(F)cccc5[nH]c4=O)[nH]c3c2)CC1; value = 0.61
Compound = CC(=O)O/N=C1/C(c2c(O)[nH]c3cc(Br)ccc23)=Nc2ccccc21; value = 0.57
Compound = CCOc1cc2ncnc(Nc3cccc(Br)c3)c2cc1OCC; value = 0.68

Study 5 — Variant: T154Q; technique: DHFR PCA, deep sequencing; sample: yeast; baseline: wild-type fitted maximum; reading: higher = stronger binding; measurement: relative binding score
Target: ABI1, truncated, D143A, DHFR fusion (Arabidopsis thaliana)
Setting: methotrexate growth selection, single substitutions
Parent: PYL1, truncated, DHFR fusion (Arabidopsis thaliana); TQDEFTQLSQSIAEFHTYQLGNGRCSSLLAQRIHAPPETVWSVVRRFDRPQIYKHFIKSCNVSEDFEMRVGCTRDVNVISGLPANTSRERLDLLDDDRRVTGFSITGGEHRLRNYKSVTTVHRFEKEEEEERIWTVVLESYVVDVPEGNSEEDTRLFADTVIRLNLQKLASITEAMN; partner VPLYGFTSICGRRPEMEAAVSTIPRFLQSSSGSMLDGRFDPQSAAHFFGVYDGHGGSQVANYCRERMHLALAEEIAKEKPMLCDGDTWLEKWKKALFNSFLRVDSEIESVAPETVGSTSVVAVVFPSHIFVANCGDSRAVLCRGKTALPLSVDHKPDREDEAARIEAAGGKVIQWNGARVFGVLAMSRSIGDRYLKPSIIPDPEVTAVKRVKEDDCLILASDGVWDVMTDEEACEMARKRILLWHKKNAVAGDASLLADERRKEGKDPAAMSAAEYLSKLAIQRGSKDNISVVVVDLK
added = (+)-ABA 2500 µM; value = 62.1%
added = (+)-ABA 1.4 µM; value = -14.1%
added = (+)-ABA 0 µM; value = -3.93%
added = (+)-ABA 710 µM; value = 27.3%
added = (+)-ABA 200 µM; value = 10.7%
added = (+)-ABA 4.8 µM; value = -9.38%

Study 6 — read-out: cell-free assay; technique: competition with immobilised ligand; concentration: 0.1 µM; measurement: remaining binding
Structure (SMILES): Nc1c(C(=O)NCc2ccc(C(=O)NCCCC3CCCCC3)cc2)cnn1-c1ccccc1
target = FGFR4 (Homo sapiens, UniProt P22455); value = 97%
target = KIT (Homo sapiens, UniProt P10721, T670I/V559D); value = 98%
target = MAP2K5 (Homo sapiens, UniProt Q13163); value = 100%
target = DYRK2 (Homo sapiens, UniProt Q92630); value = 97%
target = SRPK2 (Homo sapiens, UniProt P78362); value = 100%
target = MST1R (Homo sapiens, UniProt Q04912); value = 100%
target = DCLK2 (Homo sapiens, UniProt Q8N568); value = 100%
target = MAPK7 (Homo sapiens, UniProt Q13164); value = 78%
target = MAP3K19 (Homo sapiens, UniProt Q56UN5); value = 77%
target = HCK (Homo sapiens, UniProt P08631); value = 100%
target = KIT (Homo sapiens, UniProt P10721, V559D/V654A); value = 100%
target = PIP5K1A (Homo sapiens, UniProt Q99755); value = 100%
target = DCLK3 (Homo sapiens, UniProt Q9C098); value = 100%
target = NLK (Homo sapiens, UniProt Q9UBE8); value = 96%
target = FES (Homo sapiens, UniProt P07332); value = 100%
target = Tyrosine-protein kinase ABL1, phosphorylated (ABL1, Homo sapiens, UniProt P00519, M351T); value = 86%

Mixed results
SMILES = NC1(c2ccc(-c3nc4ccn5c(=O)[nH]nc5c4cc3-c3ccccc3)cc2)CCC1; tested on = BMPR2 (Homo sapiens, UniProt Q13873, R491Q); assay = kinase-HSP90-CDC37 interaction, LUMIER; test system = human cells; measurement = EC50; value = > 10 µM
SMILES = CC(C)n1cnc(-c2ccc(F)cc2)c1-c1ncc(C(=O)Nc2ccc(N3CCN(C)CC3)cc2)[nH]1; test system = IPF patients; setting = 30 mg once daily, adverse event; measurement = Hypertriglyceridaemia incidence; value = 0%
